# Published values pooled from the literature.
# Numbered parts are unrelated; each lists some results of a single study. Values joined by “and” are separate records of one study, mostly repeats; a detail may differ.
# Chain of UniProt P22455 (whole entry, looked up): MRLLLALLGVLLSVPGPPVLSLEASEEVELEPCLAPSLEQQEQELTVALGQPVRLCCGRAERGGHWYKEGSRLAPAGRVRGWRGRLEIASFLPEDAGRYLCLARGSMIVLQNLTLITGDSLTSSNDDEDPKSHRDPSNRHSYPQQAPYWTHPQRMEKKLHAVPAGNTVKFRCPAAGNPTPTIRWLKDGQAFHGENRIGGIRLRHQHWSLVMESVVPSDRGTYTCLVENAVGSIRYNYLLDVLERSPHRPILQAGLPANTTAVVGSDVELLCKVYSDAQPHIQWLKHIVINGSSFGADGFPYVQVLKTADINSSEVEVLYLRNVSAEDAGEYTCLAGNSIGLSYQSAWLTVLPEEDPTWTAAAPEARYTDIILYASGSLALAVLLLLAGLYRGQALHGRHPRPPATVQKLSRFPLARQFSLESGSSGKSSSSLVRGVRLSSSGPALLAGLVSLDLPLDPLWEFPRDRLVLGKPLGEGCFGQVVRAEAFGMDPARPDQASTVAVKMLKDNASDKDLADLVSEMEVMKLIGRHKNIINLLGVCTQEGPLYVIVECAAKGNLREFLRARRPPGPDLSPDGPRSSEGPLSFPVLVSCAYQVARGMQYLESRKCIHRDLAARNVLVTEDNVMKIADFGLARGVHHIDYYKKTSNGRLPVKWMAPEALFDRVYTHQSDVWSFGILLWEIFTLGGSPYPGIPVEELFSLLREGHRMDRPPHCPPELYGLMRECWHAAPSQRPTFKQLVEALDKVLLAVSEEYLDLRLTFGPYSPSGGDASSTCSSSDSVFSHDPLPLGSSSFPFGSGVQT
# Chain of UniProt O94806 (whole entry, looked up): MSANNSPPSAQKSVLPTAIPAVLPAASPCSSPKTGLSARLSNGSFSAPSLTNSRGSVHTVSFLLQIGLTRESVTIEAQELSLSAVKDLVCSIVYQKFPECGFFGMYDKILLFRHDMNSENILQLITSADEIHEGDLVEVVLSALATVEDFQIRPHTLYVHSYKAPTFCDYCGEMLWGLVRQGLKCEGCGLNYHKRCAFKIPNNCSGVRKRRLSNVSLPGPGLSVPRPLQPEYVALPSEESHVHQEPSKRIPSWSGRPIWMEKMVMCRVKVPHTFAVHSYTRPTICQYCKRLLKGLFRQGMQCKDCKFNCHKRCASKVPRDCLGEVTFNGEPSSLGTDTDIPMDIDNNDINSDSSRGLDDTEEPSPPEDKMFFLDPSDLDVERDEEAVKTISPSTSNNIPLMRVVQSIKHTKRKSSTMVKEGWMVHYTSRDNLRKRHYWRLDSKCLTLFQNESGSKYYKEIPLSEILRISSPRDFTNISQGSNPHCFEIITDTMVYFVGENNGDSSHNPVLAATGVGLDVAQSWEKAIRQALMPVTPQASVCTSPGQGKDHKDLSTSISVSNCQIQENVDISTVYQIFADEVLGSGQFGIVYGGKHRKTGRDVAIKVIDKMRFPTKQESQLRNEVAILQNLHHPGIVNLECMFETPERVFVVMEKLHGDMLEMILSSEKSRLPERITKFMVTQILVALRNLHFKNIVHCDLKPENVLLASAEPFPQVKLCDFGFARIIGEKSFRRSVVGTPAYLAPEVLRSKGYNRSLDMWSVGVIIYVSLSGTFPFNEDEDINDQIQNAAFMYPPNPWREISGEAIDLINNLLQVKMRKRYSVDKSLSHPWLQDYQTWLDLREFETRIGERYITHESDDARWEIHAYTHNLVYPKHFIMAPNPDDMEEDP
# Chain of UniProt O14757 (whole entry, looked up): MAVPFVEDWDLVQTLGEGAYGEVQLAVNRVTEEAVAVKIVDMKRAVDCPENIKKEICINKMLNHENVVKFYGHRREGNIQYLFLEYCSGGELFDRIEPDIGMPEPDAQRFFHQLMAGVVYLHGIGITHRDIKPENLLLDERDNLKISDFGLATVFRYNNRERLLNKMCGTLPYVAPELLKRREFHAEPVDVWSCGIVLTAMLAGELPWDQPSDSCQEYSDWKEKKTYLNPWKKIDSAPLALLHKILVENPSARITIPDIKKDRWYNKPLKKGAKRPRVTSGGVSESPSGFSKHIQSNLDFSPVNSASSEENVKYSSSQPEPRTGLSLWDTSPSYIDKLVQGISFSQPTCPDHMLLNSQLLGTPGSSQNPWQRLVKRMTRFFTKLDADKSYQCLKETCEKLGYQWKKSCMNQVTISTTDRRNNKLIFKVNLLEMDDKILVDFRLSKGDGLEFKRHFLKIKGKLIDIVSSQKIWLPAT
# Chain of UniProt Q9P286 (whole entry, looked up): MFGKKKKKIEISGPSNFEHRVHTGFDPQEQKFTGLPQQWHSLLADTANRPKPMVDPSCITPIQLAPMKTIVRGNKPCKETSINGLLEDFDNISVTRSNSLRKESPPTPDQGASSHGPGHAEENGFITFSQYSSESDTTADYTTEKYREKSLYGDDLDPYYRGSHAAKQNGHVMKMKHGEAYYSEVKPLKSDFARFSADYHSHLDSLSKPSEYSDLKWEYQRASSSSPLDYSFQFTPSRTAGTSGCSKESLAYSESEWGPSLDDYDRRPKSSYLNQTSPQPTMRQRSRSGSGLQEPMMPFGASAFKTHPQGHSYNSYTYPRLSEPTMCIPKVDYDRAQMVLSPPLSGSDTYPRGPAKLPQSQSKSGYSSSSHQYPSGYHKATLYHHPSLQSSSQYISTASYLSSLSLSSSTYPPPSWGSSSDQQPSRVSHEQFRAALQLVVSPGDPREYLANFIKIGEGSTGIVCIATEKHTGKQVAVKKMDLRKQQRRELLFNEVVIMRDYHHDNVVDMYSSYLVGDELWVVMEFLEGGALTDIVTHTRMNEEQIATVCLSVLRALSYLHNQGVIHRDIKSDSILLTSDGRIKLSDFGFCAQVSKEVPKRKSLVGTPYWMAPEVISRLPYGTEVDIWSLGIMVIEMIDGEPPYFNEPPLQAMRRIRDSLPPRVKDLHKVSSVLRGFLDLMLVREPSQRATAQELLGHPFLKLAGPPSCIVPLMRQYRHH
# Chain of UniProt Q15349 (whole entry, looked up): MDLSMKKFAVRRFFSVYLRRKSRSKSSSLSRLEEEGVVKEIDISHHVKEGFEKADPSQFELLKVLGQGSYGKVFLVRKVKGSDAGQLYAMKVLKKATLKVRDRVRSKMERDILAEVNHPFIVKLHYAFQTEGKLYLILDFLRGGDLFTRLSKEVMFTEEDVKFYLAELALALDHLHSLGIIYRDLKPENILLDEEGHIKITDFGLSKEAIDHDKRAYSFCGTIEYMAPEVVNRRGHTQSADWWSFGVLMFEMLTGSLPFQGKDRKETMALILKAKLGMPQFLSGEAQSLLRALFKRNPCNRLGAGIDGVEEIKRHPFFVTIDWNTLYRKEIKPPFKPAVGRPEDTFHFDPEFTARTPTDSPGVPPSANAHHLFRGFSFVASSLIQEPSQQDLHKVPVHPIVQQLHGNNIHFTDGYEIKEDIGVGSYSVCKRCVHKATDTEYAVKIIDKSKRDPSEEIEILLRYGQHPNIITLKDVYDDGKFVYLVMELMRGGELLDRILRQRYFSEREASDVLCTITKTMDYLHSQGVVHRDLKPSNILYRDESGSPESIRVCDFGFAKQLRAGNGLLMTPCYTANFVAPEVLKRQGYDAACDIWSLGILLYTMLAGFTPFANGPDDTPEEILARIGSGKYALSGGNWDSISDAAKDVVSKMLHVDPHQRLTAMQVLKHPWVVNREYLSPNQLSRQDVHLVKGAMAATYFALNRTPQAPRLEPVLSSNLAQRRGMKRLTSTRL
# Chain of UniProt O75582 (whole entry, looked up): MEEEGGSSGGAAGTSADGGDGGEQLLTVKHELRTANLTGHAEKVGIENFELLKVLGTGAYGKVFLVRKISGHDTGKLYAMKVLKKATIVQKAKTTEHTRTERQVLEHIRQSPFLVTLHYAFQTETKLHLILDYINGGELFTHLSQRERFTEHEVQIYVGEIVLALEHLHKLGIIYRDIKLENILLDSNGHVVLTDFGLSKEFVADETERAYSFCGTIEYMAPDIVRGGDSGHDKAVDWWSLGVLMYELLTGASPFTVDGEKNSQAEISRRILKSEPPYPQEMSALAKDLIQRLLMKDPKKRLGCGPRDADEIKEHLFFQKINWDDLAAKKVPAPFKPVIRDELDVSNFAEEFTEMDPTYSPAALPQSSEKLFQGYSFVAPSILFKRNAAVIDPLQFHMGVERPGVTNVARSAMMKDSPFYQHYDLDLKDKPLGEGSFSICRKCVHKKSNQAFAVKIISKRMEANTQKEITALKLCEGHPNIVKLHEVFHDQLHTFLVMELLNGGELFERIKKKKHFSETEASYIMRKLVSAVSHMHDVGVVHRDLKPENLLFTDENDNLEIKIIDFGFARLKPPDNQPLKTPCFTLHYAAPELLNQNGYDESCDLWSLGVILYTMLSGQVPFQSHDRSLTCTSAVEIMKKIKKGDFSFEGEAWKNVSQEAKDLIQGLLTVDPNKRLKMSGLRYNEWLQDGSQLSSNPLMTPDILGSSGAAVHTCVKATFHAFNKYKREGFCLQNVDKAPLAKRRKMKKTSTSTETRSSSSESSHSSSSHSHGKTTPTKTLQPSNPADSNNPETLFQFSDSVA

# Series 1
# SMILES: CO[C@@H]1[C@H](N(C)C(=O)c2ccccc2)C[C@H]2O[C@]1(C)n1c3ccccc3c3c4c(c5c6ccccc6n2c5c31)C(=O)NC4
# Mode: inhibitor
# Concentration: 1 µM
target,effect on,inhibition [%]
"MAP2K7 (Homo sapiens, UniProt O14733)",enzyme activity,8
"CHEK1 (Homo sapiens, UniProt O14757)",enzyme activity,32
"Ribosomal protein S6 kinase alpha-5, N-terminal kinase domain (RPS6KA5, Homo sapiens, UniProt O75582)",,50
"PRKD3 (Homo sapiens, UniProt O94806)",enzyme activity,18
"PAK5 (Homo sapiens, UniProt Q9P286)",enzyme activity,0
"FGFR4 (Homo sapiens, UniProt P22455)",enzyme activity,0
"Ribosomal protein S6 kinase alpha-2, kinase domain 2 (RPS6KA2, Homo sapiens, UniProt Q15349)",,6

# Series 2
# Species: mouse
# Matrix: microsomes or S9
# Concentration: 2 µM
# Time: 0.5 h
SMILES,remaining compound
O=C(O)CCc1ccc(N2Cc3ccc(NC(=O)c4ccccc4)cc3C2=O)cc1,85.5%
CSC1=N/C(=C\c2ccc(C(=O)O)cc2)C(=O)S1,> 99%
CCCC(NC(=O)c1c2c(nc3ccccc13)C(=O)N(C1CCCCC1)C2)c1cccs1 (stereo not shown),38.6%
CCOC(=O)C1=C(n2cc(-c3ccccc3)nn2)Cc2ccccc2O1,79.5%
CC(C)(C)c1n[nH]c(C2CN(C(=O)C3CCOC3)CCO2)n1 (stereo not shown),> 100%

# Series 3
# Effect on: AlphaScreen signal
# Method: AlphaScreen counter screen
# Matrix: His6 peptide without bromodomain
# Concentration: 50 µM
# Setting: assay interference check
SMILES,inhibition
CC(C)(C)OC(=O)N1CCc2nc(Nc3ccc(F)cc3)ncc2C1,8.95%
Nc1nc(Nc2ccccc2)sc1C(=O)c1ccc(Cl)s1,66%
O=c1c2ccccc2[nH]c(=S)n1CCN1CCC(=C(c2ccc(F)cc2)c2ccc(F)cc2)CC1,39.6%
CN1CCN(Cc2c(-c3ccc(F)cc3)[nH]c3ncccc23)CC1,-2.1%
CN1CC[C@H](c2c(O)cc(O)c3c(=O)cc(-c4ccccc4Cl)oc23)[C@H](O)C1,35.8% and 44%
CCN(CC)CCNc1ccc(NCCN(CC)CC)c2c1C(=O)c1ccccc1C2=O,67.8%
COc1ccc(Nc2nc(N)c(C(=O)c3ccc(OC)cc3)s2)cc1,73.1%

# Series 4
# Target: Serine/threonine-protein kinase PAK 4 (PAK4, Homo sapiens, UniProt O96013)
# Chain of UniProt O96013 (whole entry, looked up): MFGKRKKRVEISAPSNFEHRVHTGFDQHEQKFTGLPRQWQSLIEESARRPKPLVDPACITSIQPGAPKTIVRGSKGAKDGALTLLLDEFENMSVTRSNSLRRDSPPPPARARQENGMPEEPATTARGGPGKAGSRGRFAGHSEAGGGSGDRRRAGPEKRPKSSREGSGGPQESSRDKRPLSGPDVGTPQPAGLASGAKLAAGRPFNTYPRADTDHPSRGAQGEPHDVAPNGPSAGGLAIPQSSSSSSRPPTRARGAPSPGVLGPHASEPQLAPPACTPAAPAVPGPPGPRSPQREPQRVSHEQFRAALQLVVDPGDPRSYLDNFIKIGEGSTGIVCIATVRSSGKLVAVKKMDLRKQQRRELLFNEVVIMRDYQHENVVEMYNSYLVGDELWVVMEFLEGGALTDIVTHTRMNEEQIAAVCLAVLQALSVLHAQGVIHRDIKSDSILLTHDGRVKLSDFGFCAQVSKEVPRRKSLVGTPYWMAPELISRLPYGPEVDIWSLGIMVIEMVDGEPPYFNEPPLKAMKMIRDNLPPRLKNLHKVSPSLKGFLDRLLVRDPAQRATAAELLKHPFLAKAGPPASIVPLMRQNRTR
# Effect on: enzyme activity
# Mode: inhibitor
# Concentration: 0.5 µM
# Reference: control
SMILES,remaining activity [%]
COc1ccc(CNC(=O)Nc2ncc([N+](=O)[O-])s2)cc1,115
CCOC(=O)c1c(C)[nH]c(/C=C2\C(=O)Nc3ccccc32)c1C,71.8
O=c1c2ccccc2[nH]c(=S)n1CCN1CCC(=C(c2ccc(F)cc2)c2ccc(F)cc2)CC1,101
N#CC(C#N)=C(N)/C(C#N)=C/c1ccc(O)cc1,85.6
Cc1cccc(-c2[nH]c(C(C)(C)C)nc2-c2ccc3c(c2)OCO3)n1,77.5
O=C(CCCc1ccc(-c2ccccc2F)cc1)Nc1ccc(O)cc1,95.4
CN(C)c1ccc(C=C2C(=O)Nc3ccccc32)cc1,101
O=C(Nc1cccc(Nc2cc(Nc3cccc(C(F)(F)F)c3)ncn2)c1)C1CC1,103
CNC(=O)c1cc(Oc2ccc(NC(=O)Nc3ccc(Cl)c(C(F)(F)F)c3)cc2)ccn1,91.8
COc1cc2ncnc(Nc3ccc(Oc4ccccc4)cc3)c2cc1OC,98.3
Cn1c2ccccc2c2c3c(c4c5ccccc5n(CCC#N)c4c21)CNC3=O,44
Nc1ccc2ncnc(NCCc3ccc(Oc4ccccc4)cc3)c2c1,105
Cc1ccc(NC(=O)c2ccc(CN3CCN(C)CC3)cc2)cc1Nc1nc(-c2cccnc2)cs1,103
COc1ccc(C(=O)Nc2sc3c(c2C(N)=O)CCCC3)cc1OC,95.9
Nc1[nH]nc2nc3ccccc3nc12,104

# Some of these lines once more (series 1):
target,effect on,inhibition [%]
"Ribosomal protein S6 kinase alpha-5, N-terminal kinase domain (RPS6KA5, Homo sapiens, UniProt O75582)",,50
"PAK5 (Homo sapiens, UniProt Q9P286)",enzyme activity,0
"FGFR4 (Homo sapiens, UniProt P22455)",enzyme activity,0
"PRKD3 (Homo sapiens, UniProt O94806)",enzyme activity,18
